Measurements from different studies.
Parts stem from different laboratories: compare values within a part only. Positions count from the first letter of the parent shown.

Series 1
Target: CCNB3, cyclin fold, Cln2 fusion (human)
Technique: yeast growth competition, sequencing
Matrix: yeast
Notes: weak parent motif
Relative to: not given
Reading: higher = stronger binding
Starting sequence: WEE1 docking peptide (human); HKTFRKLRLFDTP
`HKTFRQLRLFDTP [K6Q]` — result for “normalised enrichment score”: 0.391.
`HQTFRKLRLFDTP [K2Q]`: “normalised enrichment score” 0.473.
Under “normalised enrichment score”, `HKTFRILRLFDTP [K6I]` is recorded as 0.404.
`HKTFQKLRLFDTP [R5Q]` — result for “normalised enrichment score”: 0.0195.
Under “normalised enrichment score”, `HKTFRKLLLFDTP [R8L]` is recorded as 0.407.
`HKTFPKLRLFDTP [R5P]` — result for “normalised enrichment score”: -0.104.
Under “normalised enrichment score”, `HKSFRKLRLFDTP [T3S]` is recorded as -0.448.
Under “normalised enrichment score”, `HKTFRKLRLFDKP [T12K]` is recorded as -0.0124.
Under “normalised enrichment score”, `HKTFAKARLFDTP [R5A L7A]` is recorded as 0.568.
Under “normalised enrichment score”, `NKTFRKLRLFDTP [H1N]` is recorded as 0.171.

Series 2
Target: Fragile X messenger ribonucleoprotein 1, C-terminal low-complexity region (Fmr1, Mus musculus, UniProt P35922)
Technique: RNA Bind-n-Seq
Form: RNA
Matrix: in vitro
Tested at: 200 nM
Notes: whole 134-nt RNA, ends assumed
With: 150 mM KCl
Relative to: input library
Reading: higher = stronger binding
Constant ends, left off below: GGGAGUUCUACAGUCCGACGAUC … UGGAAUUCUCGGGUGUCAAGG
`GUCCUGUGCUACACAUCGUAUGUACCGAAUCGGGGUUUUUGGUUUUUGGUUUUUGGGGAAAGUAUUAUGUUACGCCGUUCGGAUCUGCAC` gave a log2 enrichment of -0.353.
With `GCAGGAAGUAAAAACAAAUGGAAAUGCUUCGGAUAGUGGCAGUGGUGGGGGUUGCUAAGGAAAGGGUGGGAUGGGAGUGGGUAAAGAGUU` the log2 enrichment was -0.132.
With `CACAGACAACACGCACCCACACAGACACAGAGGGAAGGGGUUGGGAUGGGGACAGGGUGCACAGCAGGGGGGGGUAGGACCCCAGCCCCU` the log2 enrichment was 1.22.
`ACCAUGCAGGUGGGCAUCUUUGGGAAGUGGGGCAAGGGGGGGAUAGGGAGGGGGGUAACACUUUGGGAACAGGUGGUCCCAAAACGUUUC` gave a log2 enrichment of 0.741.
The log2 enrichment of `UGGGAGGUGGAUUUUGUUUAUUUUUUUAGCUCAUUUCCAGGGGUGGGAAUUUUUUUUCAAUAUGUGUCAUGAAUAAAGUUGUUUUUGAAA` is reported as 0.261.
For `CACAGACAACACGCACCCACACAGACACAGAGGGAAGGGGUUGGGAUGGGGACAGGGUGGACAGCAGGGCGGGGUAGGACCCCAGCCCCU`, the log2 enrichment was 1.19.
The log2 enrichment of `UCCUGUGCUACACAUCGUAUGUACCGAAUCGGGCCCCCCGGGCCCCCCGGCCCCCCGGGGAAAGUAUUAUGUUACGCCGUUCGGAUCUGC` is reported as -0.158.
`AAGUCCUGUGCUACACAUCGUAUGUACCGAAUCGGUUUUUUUGGAAAAAAAGGUGGAAAGUAUUAUGUUACGCCGUUCGGAUCUGCACUU` has a log2 enrichment of -1.01.
The log2 enrichment of `UCCUCAAGUCCUGUGCUACACAUCGUAUGUACCGAAUCGGUGGGUGGGGUGGAAAGUAUUAUGUUACGCCGUUCGGAUCUGCACUUCCAG` is reported as 0.444.
`UUAAAACAUGGCAACUUGUAAUUGUUUUCUUUCUUAGGAACAUCAUUCAUGGCAGUGAUUCAGUAAAAAGUGCUGAAAAAGAAAUCAGCC` has a log2 enrichment of 0.528.
For `CUCAAGUCCUGUGCUACACAUCGUAUGUACCGAAUCGGAAAGGUGGAAAAAGGAAAGUAUUAUGUUACGCCGUUCGGAUCUGCACUUCCA`, the log2 enrichment was -0.35.
`CAAGUCCUGUGCUACACAUCGUAUGUACCGAAUCGGAAAAAGGUUUUUGGAAAGGAAAGUAUUAUGUUACGCCGUUCGGAUCUGCACUUC` has a log2 enrichment of -1.06.
`CAAGUCCUGUGCUACACAUCGUAUGUACCGAAUCGGUUUUGGGUUUUGGGUUUUGGAAAGUAUUAUGUUACGCCGUUCGGAUCUGCACUU` gave a log2 enrichment of -0.782.
For `AAGUCCUGUGCUACACAUCGUAUGUACCGAAUCGGGGUGGGGUGGGGUUUUUGGGGAAAGUAUUAUGUUACGCCGUUCGGAUCUGCACUU`, the log2 enrichment was 1.3.

Series 3
Target: ABI1, truncated, D143A, DHFR fusion (Arabidopsis thaliana)
Technique: DHFR PCA, deep sequencing
Matrix: yeast
Notes: methotrexate growth selection, single substitutions
With: (+)-ABA 0 µM
Relative to: wild-type fitted maximum
Reading: higher = stronger binding
Starting sequence: PYL1, truncated, DHFR fusion (Arabidopsis thaliana); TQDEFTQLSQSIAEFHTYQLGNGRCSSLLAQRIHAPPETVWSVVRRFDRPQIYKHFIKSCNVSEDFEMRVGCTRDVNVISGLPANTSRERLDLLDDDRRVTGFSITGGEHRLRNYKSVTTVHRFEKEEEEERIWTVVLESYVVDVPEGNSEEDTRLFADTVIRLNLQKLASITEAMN; partner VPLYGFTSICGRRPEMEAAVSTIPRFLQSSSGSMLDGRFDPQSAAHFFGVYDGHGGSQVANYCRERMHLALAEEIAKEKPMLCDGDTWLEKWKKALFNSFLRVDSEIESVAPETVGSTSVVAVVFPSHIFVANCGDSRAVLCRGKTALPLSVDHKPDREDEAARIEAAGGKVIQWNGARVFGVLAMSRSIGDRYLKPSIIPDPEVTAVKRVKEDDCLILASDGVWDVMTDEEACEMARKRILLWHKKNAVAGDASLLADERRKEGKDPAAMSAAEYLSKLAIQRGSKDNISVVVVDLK
For `A170P`, “relative binding score” read -5.38%.
`V100G` — result for “relative binding score”: -1.26%.
`E125H`: “relative binding score” 31.9%.
Under “relative binding score”, `I79M` is recorded as 12.3%.
For `I57S`, “relative binding score” read 1.71%.
Under “relative binding score”, `V118S` is recorded as -0.533%.
For `N22Q`, “relative binding score” read 39.3%.
For `H16A`, “relative binding score” read -0.719%.
For `R111A`, “relative binding score” read 5.66%.
`G102C`: “relative binding score” -3.9%.
`V143K` — result for “relative binding score”: -1.88%.

Series 4
Target: Histone acetyltransferase KAT6A, winged helix 1, GST fusion (KAT6A, Homo sapiens, UniProt Q92794, residues 1-85)
Technique: protein binding microarray
Form: double-stranded DNA, one strand shown
Matrix: in vitro
Tested at: not given
Notes: 8-mer, flanks averaged, mean of 2 arrays, mostly near background
Relative to: not given
Reading: higher = stronger binding
Residues (chain): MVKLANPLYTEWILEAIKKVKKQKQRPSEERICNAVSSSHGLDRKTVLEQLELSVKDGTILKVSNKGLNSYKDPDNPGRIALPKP
`TGTGCGAA` has an E-score of 0.017.
With `ATTCCATC` the E-score was -0.112.
`AATTCCCA` has an E-score of -0.29.
`CGGGAGAG` has an E-score of 0.149.
`AACTTTTC` has an E-score of -0.034.
`CCTATAAA` has an E-score of -0.123.
`CGGGCCTA` gave an E-score of 0.224.
`ACAGTCTG` gave an E-score of -0.179.
For `GCGGGCCA`, the E-score was 0.287.
`ACGTAGAT` has an E-score of -0.042.
The E-score of `AATGGAGG` is reported as -0.0202.
For `ACGGACCT`, the E-score was 0.189.
With `CACGCTCG` the E-score was 0.0273.
`CGACAGAC` gave an E-score of -0.0735.
`AAGATAAT` gave an E-score of -0.0345.
`CGACCCCA` gave an E-score of -0.131.
For `ATTGCCGA`, the E-score was 0.188.
With `ATAGCGAC` the E-score was 0.129.
The E-score of `ATCTCTAG` is reported as -0.197.
The E-score of `ACTGATAG` is reported as -0.202.
The E-score of `CTTCGACA` is reported as -0.159.
The E-score of `ACGCTATG` is reported as 0.181.
`AACCACTT` gave an E-score of -0.109.
For `ACCACAGG`, the E-score was -0.155.
`ACAAGAGC` gave an E-score of -0.111.

Series 5
Target: RING finger protein unkempt homolog, zinc fingers 1-6, SBP tag (UNK, Homo sapiens, UniProt Q9C0B0, residues 30-357)
Chain of UniProt Q9C0B0 (30-357, looked up): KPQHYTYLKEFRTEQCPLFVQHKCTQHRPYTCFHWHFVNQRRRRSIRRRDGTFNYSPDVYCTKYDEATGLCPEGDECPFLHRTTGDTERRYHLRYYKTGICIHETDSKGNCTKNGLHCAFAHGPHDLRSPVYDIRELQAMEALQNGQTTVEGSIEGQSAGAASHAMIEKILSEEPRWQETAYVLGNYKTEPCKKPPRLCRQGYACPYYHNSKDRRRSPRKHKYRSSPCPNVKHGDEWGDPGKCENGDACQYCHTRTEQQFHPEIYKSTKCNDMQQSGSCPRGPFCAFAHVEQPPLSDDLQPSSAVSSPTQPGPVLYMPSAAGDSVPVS
Technique: RNA Bind-n-Seq
Form: RNA
Matrix: in vitro
Tested at: 100 nM
Notes: RNA with constant flanks, vertebrate orthologous sites, ends assumed
Relative to: input RNA pool
Reading: higher = stronger binding
Constant ends, left off below: GGGAGUUCUACAGUCCGACGAUC … CAACAGAGGAUUGAGCAUCA
`CAUUGUACCCUGCUGUAUAAUAAACAGUCUUAGACAUUUAUCAACUGUUGAUACACAUGUUAGUCCCUAACCACUUUUUAUAUGUUUUAAAUUUUUGAAAUUCAAGUGUACCUGCCAUAA` gave a bound/input enrichment of 1.97 ratio.
With `GAGCACUGCCUGUGUGUACCCACAGCACUGCAGGCAAAGUAGUAAUUCCACAGUCACAGUAAGAGAGCUUCAGGGCAGUGUCACCAUGGUUCUCUCAUGGGCAGGUUCUGAAAAUGUACA` the bound/input enrichment was 0.571 ratio.
With `AUCUCUCAUUUUCUAUGUCCAAAAAAGGUUUUGAAUUUUUAAAUAAUUGCUAGUUUUGAUUAGCUUUGCCCUCAUGAAGUAUUAUUAUAAUCCCCAUAAACAGAUAUCUGUCUGAAUUAC` the bound/input enrichment was 0.777 ratio.
With `GUGAGCAGUGGGCACCGGACUGGAGCAAGGAGCAAGUCAAGCAAACCUCCAGUGAAACUGCUGCCAUCUGCACUAUCGUUAACCUGCUGUCACCUUUUUCAUAUAUAUAUAAAAUACUUA` the bound/input enrichment was 0.131 ratio.
The bound/input enrichment of `UGUUAGUUAUUGAUGGACUCUAUUUUUUUAUUAUUACUUGGACCUUGGUCGUUUUUAUACUAGCAAAAUGUCUUGUUUUAAUUUGUGUUUUUUGGGGGGGAGGGAGUGAACUUGCUGAUU` is reported as 2.68 ratio.
`UUUGUGGGGAUCGGGGGGUGGGAAGAAGAUGUAUGGAUGUUAUUGGCAUUUUUAAAUGUUCAGAGGUUUUUGUUUUGUUUUGUUUUGUUUCUUCUGUUUUGUUUUUUCUUCCCUUUAAUU` gave a bound/input enrichment of 0.701 ratio.
For `AGCUUCUGGCGACAUUUGGCCUGGCCUUUCAGCAUAUGAUAACAGUCCAAGGUCACCCCAUAGUCCUUCUAUUGCCACCCCACCUAGUCAGAGUUCAUCUUGCUCUGAUGCCCCUUUGCU`, the bound/input enrichment was 0.727 ratio.
For `AAGCCCUGUGAAGGUCUACUGACCGCUCACUAGAGUCUGCUAUCUGUAAACACUUCUGUUUAGUCCUAUCAUUGUAUAAUUGAUGUUCUUUAAAACUGUCGAUGUAAAACAGGGCUUAUG`, the bound/input enrichment was 0.339 ratio.
The bound/input enrichment of `GGGGCGGGCUCUGUAGGGAGCUGCUGGCCAUUUGGCAGCACUUGACUUACGACCUUGACAUGAUAGAUAGGUUUGUGGUUUUUUAAUUUAAAGAUGUUAAGACUUAAUCCGCUAAAAUUU` is reported as 0.291 ratio.
`UUGUUGUGUACAGGGCAUUCUCUGUACUAGUUUGUUGUGGUUAUAAAACAUUUAGCAAAACAGCUUACAUUUGUAUUUAUUUUCUAUUCCAUACUUCUGUGCCCCAUGUGUUUCUCUUAA` has a bound/input enrichment of 0.656 ratio.
`GUUCUGGUACAAAGCUCUACGUACCAACGCUUGUCAUCCUUACAUCAUACCAACUAUUCCUAGGUGUAGGAGUUUAAUAUUUUUCAAAAGUUUUACAUUGCUGUAUAUUCAAAGAUUUCU` has a bound/input enrichment of 0.465 ratio.
